# Assay results gathered from unrelated publications.
# Each numbered part is a random draw from the data of one study; scales do not carry over between parts.
# Chain of UniProt Q8NE63 (whole entry, looked up): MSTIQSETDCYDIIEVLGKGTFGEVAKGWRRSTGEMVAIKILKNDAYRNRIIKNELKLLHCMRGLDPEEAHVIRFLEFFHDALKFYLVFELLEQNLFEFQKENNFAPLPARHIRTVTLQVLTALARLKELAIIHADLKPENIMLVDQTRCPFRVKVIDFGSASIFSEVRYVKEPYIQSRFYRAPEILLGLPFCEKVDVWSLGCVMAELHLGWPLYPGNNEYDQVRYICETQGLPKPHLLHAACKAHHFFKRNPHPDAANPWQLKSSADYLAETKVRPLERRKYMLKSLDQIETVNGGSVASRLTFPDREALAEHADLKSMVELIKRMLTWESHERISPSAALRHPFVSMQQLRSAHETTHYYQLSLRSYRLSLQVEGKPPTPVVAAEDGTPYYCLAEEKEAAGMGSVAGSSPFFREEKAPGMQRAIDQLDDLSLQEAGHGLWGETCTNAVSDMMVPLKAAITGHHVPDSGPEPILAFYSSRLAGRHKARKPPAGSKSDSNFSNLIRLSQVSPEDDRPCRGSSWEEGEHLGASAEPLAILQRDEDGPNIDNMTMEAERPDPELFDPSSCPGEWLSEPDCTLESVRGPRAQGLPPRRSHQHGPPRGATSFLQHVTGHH
# Chain of UniProt Q16644 (whole entry, looked up): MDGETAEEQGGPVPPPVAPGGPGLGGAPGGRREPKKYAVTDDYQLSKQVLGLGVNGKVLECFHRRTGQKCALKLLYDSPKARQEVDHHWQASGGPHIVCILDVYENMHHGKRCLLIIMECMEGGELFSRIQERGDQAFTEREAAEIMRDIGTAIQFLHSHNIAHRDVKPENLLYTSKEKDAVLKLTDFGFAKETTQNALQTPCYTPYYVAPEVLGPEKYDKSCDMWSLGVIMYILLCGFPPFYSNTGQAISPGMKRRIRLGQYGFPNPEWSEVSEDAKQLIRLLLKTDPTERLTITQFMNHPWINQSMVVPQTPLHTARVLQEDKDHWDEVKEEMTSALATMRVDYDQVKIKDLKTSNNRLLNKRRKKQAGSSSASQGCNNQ
# Chain of UniProt O00750 (whole entry, looked up): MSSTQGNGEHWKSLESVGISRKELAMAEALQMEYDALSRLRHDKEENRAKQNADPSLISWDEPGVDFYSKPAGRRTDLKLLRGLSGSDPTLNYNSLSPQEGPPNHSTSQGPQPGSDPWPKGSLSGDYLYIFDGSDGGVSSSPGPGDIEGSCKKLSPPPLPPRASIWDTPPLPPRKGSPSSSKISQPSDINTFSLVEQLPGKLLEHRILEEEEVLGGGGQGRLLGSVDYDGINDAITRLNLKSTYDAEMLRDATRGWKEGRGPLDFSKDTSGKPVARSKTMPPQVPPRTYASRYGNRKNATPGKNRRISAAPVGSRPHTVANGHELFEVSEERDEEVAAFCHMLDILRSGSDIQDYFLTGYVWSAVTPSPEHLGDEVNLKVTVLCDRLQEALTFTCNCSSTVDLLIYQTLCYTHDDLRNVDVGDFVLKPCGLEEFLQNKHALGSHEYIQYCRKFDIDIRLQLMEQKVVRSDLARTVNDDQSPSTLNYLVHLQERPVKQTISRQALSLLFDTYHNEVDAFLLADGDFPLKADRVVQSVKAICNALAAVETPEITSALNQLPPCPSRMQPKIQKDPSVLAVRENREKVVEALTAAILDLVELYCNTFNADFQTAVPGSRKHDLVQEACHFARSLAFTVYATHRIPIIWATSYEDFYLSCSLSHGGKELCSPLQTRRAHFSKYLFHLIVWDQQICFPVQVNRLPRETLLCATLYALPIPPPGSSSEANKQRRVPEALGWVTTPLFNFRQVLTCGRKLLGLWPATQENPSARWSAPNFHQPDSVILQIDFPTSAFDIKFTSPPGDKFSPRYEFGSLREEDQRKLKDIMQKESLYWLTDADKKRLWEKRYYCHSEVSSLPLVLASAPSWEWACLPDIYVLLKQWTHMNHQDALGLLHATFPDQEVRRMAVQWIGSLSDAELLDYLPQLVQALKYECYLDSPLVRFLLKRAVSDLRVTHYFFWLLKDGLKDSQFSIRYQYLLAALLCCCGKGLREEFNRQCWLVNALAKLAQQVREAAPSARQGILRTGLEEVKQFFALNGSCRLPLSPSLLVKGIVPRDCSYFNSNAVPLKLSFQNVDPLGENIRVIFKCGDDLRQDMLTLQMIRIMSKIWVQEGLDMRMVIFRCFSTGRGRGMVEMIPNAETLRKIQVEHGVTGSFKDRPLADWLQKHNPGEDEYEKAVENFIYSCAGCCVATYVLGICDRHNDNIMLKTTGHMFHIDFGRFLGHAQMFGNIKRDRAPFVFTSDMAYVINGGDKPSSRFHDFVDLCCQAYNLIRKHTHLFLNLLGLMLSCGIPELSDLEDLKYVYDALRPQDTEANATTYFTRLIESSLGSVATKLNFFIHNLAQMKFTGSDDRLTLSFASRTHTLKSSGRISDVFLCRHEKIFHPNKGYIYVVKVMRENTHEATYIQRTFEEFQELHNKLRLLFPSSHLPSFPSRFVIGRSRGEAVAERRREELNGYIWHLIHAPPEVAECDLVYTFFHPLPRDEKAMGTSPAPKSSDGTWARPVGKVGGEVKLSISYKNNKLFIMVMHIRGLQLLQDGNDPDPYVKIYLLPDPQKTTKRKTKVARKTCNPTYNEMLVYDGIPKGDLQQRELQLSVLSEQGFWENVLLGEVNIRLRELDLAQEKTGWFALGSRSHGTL
# Chain of UniProt Q14680 (whole entry, looked up): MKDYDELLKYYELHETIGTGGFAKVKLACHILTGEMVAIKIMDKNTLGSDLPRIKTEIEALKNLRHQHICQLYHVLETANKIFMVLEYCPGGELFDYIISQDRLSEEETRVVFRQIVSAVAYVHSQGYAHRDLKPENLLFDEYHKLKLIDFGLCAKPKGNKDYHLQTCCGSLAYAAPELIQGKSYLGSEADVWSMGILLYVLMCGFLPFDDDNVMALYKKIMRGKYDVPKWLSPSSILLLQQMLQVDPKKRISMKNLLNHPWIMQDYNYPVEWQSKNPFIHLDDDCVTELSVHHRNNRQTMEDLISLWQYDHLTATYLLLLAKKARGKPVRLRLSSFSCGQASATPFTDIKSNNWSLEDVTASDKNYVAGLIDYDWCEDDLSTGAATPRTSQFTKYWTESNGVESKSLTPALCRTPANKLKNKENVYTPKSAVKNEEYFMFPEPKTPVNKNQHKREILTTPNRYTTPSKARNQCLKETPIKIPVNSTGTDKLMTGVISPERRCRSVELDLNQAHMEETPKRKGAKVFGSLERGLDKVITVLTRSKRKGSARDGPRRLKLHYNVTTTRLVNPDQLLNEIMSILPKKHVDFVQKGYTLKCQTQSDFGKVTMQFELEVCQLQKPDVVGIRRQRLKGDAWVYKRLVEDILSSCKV
# Chain of UniProt Q96PN8 (whole entry, looked up): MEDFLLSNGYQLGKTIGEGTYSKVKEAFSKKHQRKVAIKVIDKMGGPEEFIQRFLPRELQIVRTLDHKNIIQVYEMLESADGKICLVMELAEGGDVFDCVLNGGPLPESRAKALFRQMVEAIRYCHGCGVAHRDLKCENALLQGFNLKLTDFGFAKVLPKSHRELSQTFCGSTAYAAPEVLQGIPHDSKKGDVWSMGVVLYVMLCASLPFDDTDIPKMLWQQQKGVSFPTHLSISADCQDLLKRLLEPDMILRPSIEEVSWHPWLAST
# Chain of UniProt P49760 (whole entry, looked up): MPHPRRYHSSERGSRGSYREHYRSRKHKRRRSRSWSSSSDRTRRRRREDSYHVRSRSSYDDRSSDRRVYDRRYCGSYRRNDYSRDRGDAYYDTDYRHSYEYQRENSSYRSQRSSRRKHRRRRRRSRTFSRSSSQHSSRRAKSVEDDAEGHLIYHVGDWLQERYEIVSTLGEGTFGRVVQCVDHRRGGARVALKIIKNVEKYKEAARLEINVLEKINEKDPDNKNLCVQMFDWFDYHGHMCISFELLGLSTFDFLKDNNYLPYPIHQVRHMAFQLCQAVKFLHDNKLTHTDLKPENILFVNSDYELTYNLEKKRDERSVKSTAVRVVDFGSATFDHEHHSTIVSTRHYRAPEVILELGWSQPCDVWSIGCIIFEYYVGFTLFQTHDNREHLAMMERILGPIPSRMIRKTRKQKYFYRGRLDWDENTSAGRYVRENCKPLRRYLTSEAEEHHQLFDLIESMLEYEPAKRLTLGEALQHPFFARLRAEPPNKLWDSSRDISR
# Chain of UniProt P57059 (whole entry, looked up): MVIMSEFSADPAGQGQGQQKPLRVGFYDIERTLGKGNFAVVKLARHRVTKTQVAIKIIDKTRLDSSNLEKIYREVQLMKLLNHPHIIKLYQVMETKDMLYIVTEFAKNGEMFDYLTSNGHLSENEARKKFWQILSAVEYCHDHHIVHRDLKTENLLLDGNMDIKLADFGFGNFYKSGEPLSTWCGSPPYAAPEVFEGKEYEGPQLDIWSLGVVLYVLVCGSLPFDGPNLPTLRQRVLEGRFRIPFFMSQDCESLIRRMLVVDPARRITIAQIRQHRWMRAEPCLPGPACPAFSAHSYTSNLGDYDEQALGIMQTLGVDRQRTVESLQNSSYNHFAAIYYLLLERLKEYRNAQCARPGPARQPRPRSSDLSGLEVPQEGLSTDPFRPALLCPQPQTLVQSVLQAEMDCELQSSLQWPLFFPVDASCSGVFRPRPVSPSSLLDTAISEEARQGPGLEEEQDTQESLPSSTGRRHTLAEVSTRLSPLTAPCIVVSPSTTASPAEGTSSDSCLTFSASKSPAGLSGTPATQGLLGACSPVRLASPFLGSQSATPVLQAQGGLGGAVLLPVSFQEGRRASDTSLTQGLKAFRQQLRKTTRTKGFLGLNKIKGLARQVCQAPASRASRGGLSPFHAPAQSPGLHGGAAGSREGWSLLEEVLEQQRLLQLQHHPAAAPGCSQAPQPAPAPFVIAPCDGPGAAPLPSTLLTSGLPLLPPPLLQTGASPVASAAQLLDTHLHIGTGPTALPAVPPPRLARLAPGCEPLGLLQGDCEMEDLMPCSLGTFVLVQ

# Sample 1
# Organism: Sarcocystis neurona
# Read-out: parasite activity
# Concentration: concentration not given
SMILES,activity class
CC(=O)CCCCn1cnc2c1c(=O)n(C)c(=O)n2C,inactive
CCCN[C@H]1CCc2nc(N)sc2C1.Cl,inactive
CC1(C)C[C@@H]1C(=O)N/C(=C\CCCCSC[C@H](N)C(=O)O)C(=O)[O-].[Na+],inactive
O=C1c2c(O)cc(O)cc2OC(c2ccc(O)c(O)c2)C1O (stereo not shown),inactive
Nc1ccc2cn[nH]c2c1,inactive
Cc1cccc(CCN2CCC(C(=O)c3ccc(NS(C)(=O)=O)cc3)CC2)n1.Cl.Cl,inactive

# Sample 2
# SMILES: Cn1cnc2cc3c(Nc4cccc(Br)c4)ncnc3cc21
# Read-out: enzyme activity
# Action: inhibitor
# Concentration: 0.5 µM
# Relative to: control
target,remaining activity [%]
"CAMK2B (Homo sapiens, UniProt Q13554)",102
"PDPK1 (Homo sapiens, UniProt O15530)",98.8
"SRMS (Homo sapiens, UniProt Q9H3Y6)",84
"PHKG1 (Homo sapiens, UniProt Q16816)",85
"WNK3 (Homo sapiens, UniProt Q9BYP7)",95.8
"STK17A (Homo sapiens, UniProt Q9UEE5)",82.5
"DYRK3 (Homo sapiens, UniProt O43781)",102
"EPHB1 (Homo sapiens, UniProt P54762)",72.2
"BLK (Homo sapiens, UniProt P51451)",81
"MAPKAPK3 (Homo sapiens, UniProt Q16644)",94.4
"HIPK2 (Homo sapiens, UniProt Q9H2X6)",106
"RPS6KA6 (Homo sapiens, UniProt Q9UK32)",92.5
"STK16 (Homo sapiens, UniProt O75716)",96.3
"EPHA4 (Homo sapiens, UniProt P54764)",80.7
"Cyclin-dependent kinase 1, with cyclin B (CDK1, Homo sapiens, UniProt P06493)",97.9
"MAP4K4 (Homo sapiens, UniProt O95819)",52.1
"AXL (Homo sapiens, UniProt P30530)",101
"TSSK2 (Homo sapiens, UniProt Q96PF2)",111
"HIPK4 (Homo sapiens, UniProt Q8NE63)",88.6

# Sample 3
# SMILES: Cc1c[nH]c2nccc(Oc3c(F)cc(Nc4cc(Cl)nc(N)n4)cc3F)c12
# Concentration: 0.1 µM
target,assay,remaining binding [%]
"MAP3K5 (Homo sapiens, UniProt Q99683)","cell-free assay, competition with immobilised ligand",98
"MAP3K13 (Homo sapiens, UniProt O43283)","cell-free assay, competition with immobilised ligand",81
"PIM1 (Homo sapiens, UniProt P11309)","cell-free assay, competition with immobilised ligand",100
"TSSK3 (Homo sapiens, UniProt Q96PN8)","cell-free assay, competition with immobilised ligand",100
"CAMK1G (Homo sapiens, UniProt Q96NX5)","cell-free assay, competition with immobilised ligand",97
"PIK3C2B (Homo sapiens, UniProt O00750)","cell-free assay, competition with immobilised ligand",88
"CILK1 (Homo sapiens, UniProt Q9UPZ9)","cell-free assay, competition with immobilised ligand",79
"PRKX (Homo sapiens, UniProt P51817)","cell-free assay, competition with immobilised ligand",77
"SIK1 (Homo sapiens, UniProt P57059)",competition binding,98
"MELK (Homo sapiens, UniProt Q14680)","cell-free assay, competition with immobilised ligand",57
"CLK2 (Homo sapiens, UniProt P49760)","cell-free assay, competition with immobilised ligand",86
"RET (Homo sapiens, UniProt P07949, V804L)","cell-free assay, competition with immobilised ligand",100
"DCLK1 (Homo sapiens, UniProt O15075)","cell-free assay, competition with immobilised ligand",65
"SIK2 (Homo sapiens, UniProt Q9H0K1)","cell-free assay, competition with immobilised ligand",100

# Other studies, line by line
SMILES,system,setting,measurement,value
CC(C)n1cnc(-c2ccc(F)cc2)c1-c1ncc(C(=O)Nc2ccc(N3CCN(C)CC3)cc2)[nH]1,idiopathic pulmonary fibrosis patients,"oral, 30 mg twice daily, week 0 to 12, trial",acute exacerbation incidence,0%

# Excerpt of the above (sample 2):
target,remaining activity [%]
"SRMS (Homo sapiens, UniProt Q9H3Y6)",84
"PHKG1 (Homo sapiens, UniProt Q16816)",85
"WNK3 (Homo sapiens, UniProt Q9BYP7)",95.8
"STK17A (Homo sapiens, UniProt Q9UEE5)",82.5
"DYRK3 (Homo sapiens, UniProt O43781)",102
